Published values from different studies.
A part holds a random share of what one study measured.

Sample 1
Target: Interferon regulatory factor 3, full length, phosphomimetic (IRF3, Homo sapiens, UniProt Q14653, residues 1-427, S386D/S396D/S398D/S402D/T404D/S405D)
Technique: protein-binding microarray
Form: double-stranded DNA, one strand shown
Medium: in vitro
Concentration: 2540 nM top
Setting: 60-bp whole probe
Added: salmon DNA 0.4 mg/ml
Reference: random background probes
Reading: higher = stronger binding
Quantity: fitted relative affinity
Shared flanks, not repeated: GCCTAGCAC … GTCTTGATTCGCTTGACGCTGCTG
Construct (chain): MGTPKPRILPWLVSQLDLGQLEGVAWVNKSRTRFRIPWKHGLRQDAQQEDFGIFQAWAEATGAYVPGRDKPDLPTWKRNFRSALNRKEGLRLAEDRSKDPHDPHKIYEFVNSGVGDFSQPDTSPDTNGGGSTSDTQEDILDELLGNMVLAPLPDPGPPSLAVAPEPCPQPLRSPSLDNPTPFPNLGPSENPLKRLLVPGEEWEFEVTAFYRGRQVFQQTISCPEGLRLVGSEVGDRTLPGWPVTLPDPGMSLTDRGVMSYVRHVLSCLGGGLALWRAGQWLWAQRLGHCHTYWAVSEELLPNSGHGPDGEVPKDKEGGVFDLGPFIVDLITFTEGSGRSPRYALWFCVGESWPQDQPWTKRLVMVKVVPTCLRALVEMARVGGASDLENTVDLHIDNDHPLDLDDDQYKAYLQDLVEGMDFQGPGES
CTAGGTATCGGACTGGGTTAGTGCTAG: 1.24 z-score
GACGGACTGAGTTTCGGGACGTGCTAG: 1.88 z-score
TTAGGACTGGGACTGGGTTTGTGCTAG: -1.01 z-score
TTAGGTTTCGGACAGGGTTAGTGCTAG: 2.53 z-score
TTAGATTTCAGACTGGACTAGTGCTAG: 0.542 z-score
TTAAGTCTCGGTTTCGGTTAGTGCTAG: 5.81 z-score
CGCCCACTCATGCCTCTTAAGGTGCTA: -0.142 z-score
GACGGTATCGTGTTTCGGGACGTGCTA: 1.99 z-score
TTAGAACTGACACTGGATTAGTGCTAG: -0.0577 z-score
TTAGGTTGCGGTTTCGGTTAGTGCTAG: 8.25 z-score
GACGGTATCGGTCCCGGGACGTGCTAG: 2.54 z-score
CACGGTTTCCTTCTCCTGACGTGCTAG: 9.12 z-score
CTACGTCTGATTTTGCTTTCGTGCTAG: 0.502 z-score
GACGATATCGTGTTTCGAGACGTGCTA: 0.934 z-score
TTAGAACGGGGGTTTCGATTAGTGCTA: 1.84 z-score
TCAACTAGGGAATTTAGAACTGTGCTA: -0.129 z-score
CAGCACAGCTGACTACAAGCGTGCTAG: -0.887 z-score
TCATAAGCAAAAATGATACTGTGCTAG: 0.43 z-score
TTAGGTCTCCTACTGCTTAAGTGCTAG: 0.874 z-score
GACAGACTGCTTTTCCTGACGTGCTAG: -0.0494 z-score
GGCGGTATCCTTCTCCTGACGTGCTAG: 7.08 z-score
TTAGGACTGGGTTTCGGTCAGTGCTAG: 1.89 z-score
TTAGGTATCATTTTCCTTTAGTGCTAG: 5.76 z-score
AAATTCTATTCTCTCAATTTGTGCTAG: 2.43 z-score
GACGGTTTCCTTATCCTGATGTGCTAG: 7.88 z-score

Sample 2
Target: RNA binding protein fox-1 homolog 2, RRM domain, GST-SBP tag (RBFOX2, Homo sapiens, UniProt O43251-10, residues 100-194)
Technique: RNA Bind-n-Seq
Form: RNA
Medium: in vitro
Concentration: 365 nM
Setting: natural RNA segment, single round, ends assumed
Reference: no-protein control
Reading: higher = stronger binding
Quantity: RBNS enrichment (R)
Target sequence (chain): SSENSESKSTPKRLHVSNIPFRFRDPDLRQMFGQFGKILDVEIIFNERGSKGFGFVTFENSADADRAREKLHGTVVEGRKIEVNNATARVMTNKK
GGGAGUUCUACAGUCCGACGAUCGUAAGACAAAAACACCAGGAAGCAGGAUUCCGUGCCCAUCUCUGCAGUUUGGGUUCACAAAAGGGGGUGCCGUCAUCCCUGGGUGGAGGAGGGAGUGUUGGUUUUUUGUUUGGAAUUCUCGGGUGCCAA: 0.445
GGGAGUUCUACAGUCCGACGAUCCUAAAAAUAAGGUUUAUUAAGCCAAGACCAGACUUUUGAGCAGGGCAGCACUGCCAGGCUGUCGUCAGUUUCACCAUGUGGCCUCUGUGCCCCUCCUCCGUAGUCCUCUCUGGAAUUCUCGGGUGCCAA: 0.254
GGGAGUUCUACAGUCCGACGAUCUAGGUAUUUUUCACUGGCCCAAAGUAUUGCAUUCCCUUAACAGCAAGCACAAGUUCUCUAUAUCACUUGUUUUUUGUUGUUGUUGUUGUUGUCGUCGUUGUUUUGAGACGUGGAAUUCUCGGGUGCCAA: 1.09
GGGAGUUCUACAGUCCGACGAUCUUCUUUUCUCCUUUACCAGUCCUAUUUUUCAAUGGGAAGACUCAGGAGUCUGCCACUUGUCAAAGAAGGUGCUGAUCCUAAGAAUUUUUCAUUCUCAGAAUUCGGUGUGCUGGAAUUCUCGGGUGCCAA: 0.248
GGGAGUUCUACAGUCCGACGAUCAGAAAUGGAAUGAAUCUCCAAGGCUUUUAGGACUGUCUGAAAAUUUGAGGCUGGGUGAAGUUAAAACACCUUUCCUUAUGUCUCCUGACCUGAAAUUGUAUAGUGUUGAUUGGAAUUCUCGGGUGCCAA: 1.02
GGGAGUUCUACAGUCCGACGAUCGAGAGCUGCCUUAUAUUCCUACAUUCCAGGCCAGAACCAGCACAGGACUGAACACAUCCCUGGUUGUAAUGUCCAUUUCCAUCUUCCCCGUCUCCCUUUCCACAUCAAGGUGGAAUUCUCGGGUGCCAA: 0.863
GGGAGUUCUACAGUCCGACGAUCCCAGGGUCCCUGCCCACUUCUGUUUUCCUAAUGUUUUUCUCUAUAAAGGGUCAGGCCCGUCAGCAUCACUGAUGGGAAUAAAAGUAUUAAUGCUUUGUGACAGCCUCUGCUGGAAUUCUCGGGUGCCAA: 0.585
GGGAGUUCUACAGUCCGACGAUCGCCUAGAUUCUGAGAUCUUCCCAUUCUAGGCCUACAAGCACUACUUGCUGUAGCUGAGACUUGUCUAGAGUCCUUUGUUUUGCACUUUUGACCCACCCCUUCCUGGAUCAUGGAAUUCUCGGGUGCCAA: 0.851
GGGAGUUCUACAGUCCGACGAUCUUGAUGGGCAAGCCUUGCUGCUGCUCAAGGAGGACCACCUAAUGAGCGCCAUGAACAUCAAGCUAGGGCCCGCCCUGAAGAUCUACGCACGCAUCAGCAUGCUCAAGGACUGGAAUUCUCGGGUGCCAA: 1.13
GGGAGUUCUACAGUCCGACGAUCACAGAUAGGCCAAGGGCUACUCUCUGGCAUCUCCAGGUGUUUUGUAGCAAACAGCCACUUAGUGCUUUGUCCUGGACUCCACUCAGCCUCAGGAUGGGGAAUAGCCAAGAUGGAAUUCUCGGGUGCCAA: 0.355
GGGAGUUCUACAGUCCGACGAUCGAUCUGAGUUAUUUUGCUAAACUUGGGGGAGGAGGAACAAAUAAAUGGAGUCUUUAUUGUGUAUCAUCCACUGAAUGUGGCUCAUUUGUAUUGAAAGACAGUGAAACGAGUGGAAUUCUCGGGUGCCAA: 0.842
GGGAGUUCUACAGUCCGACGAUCGUUCCAUGUCACAAACAGGAAGGUUAGAAACACUAAGGUCUGUGAACAUCACUGCUGCAGCGAGGCAGCUCCUCUGUCUACUCGUUCAAGUGUCUUACUCUACUGGAUGCUGGAAUUCUCGGGUGCCAA: 0.233

Sample 3
Target: Fragile X messenger ribonucleoprotein 1, C-terminal low-complexity region (Fmr1, Mus musculus, UniProt P35922)
Technique: RNA Bind-n-Seq
Form: RNA
Medium: in vitro
Concentration: 200 nM
Setting: whole 134-nt RNA, ends assumed
Added: 150 mM KCl
Reference: input library
Reading: higher = stronger binding
Quantity: log2 enrichment
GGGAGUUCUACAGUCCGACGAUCGUCCUGUGCUACACAUCGUAUGUACCGAAUCAAAUUUUUUUAAACCCAAACCCCCAAAAAAGUAUUAUGUUACGCCGUUCGGAUCUGCACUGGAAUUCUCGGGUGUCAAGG: -0.348
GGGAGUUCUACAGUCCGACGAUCCACAGACAACACGCACCCACACAGACACAGAGGGAAGGGGUUGGGAUGGGGACAGGGUGCCCAGCAGGGCGGGGUAGGACCCCAGCCCCUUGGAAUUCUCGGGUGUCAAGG: 1.22
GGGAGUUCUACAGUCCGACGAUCUCCUCAAGUCCUGUGCUACACAUCGUAUGUACCGAAUCGGUGGUUUGGAGGAAAGUAUUAUGUUACGCCGUUCGGAUCUGCACUUCCAGCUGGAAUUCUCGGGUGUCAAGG: -0.361
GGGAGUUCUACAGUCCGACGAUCUCAAGUCCUGUGCUACACAUCGUAUGUACCGAAUCGGGUUUGGGAAAGGGAGGGAAAGUAUUAUGUUACGCCGUUCGGAUCUGCACUUCCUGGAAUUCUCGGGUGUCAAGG: 1.12
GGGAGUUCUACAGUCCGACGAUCUGGCCCUGGUGGCAUGCGGGGAGGAAGAGGUGGCCUCAUGGAUCGUGGUGGUCCCGGUGGAACGUUCAGAGGUGGCCGUGGUGGAGACAGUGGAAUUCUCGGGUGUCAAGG: 0.0597
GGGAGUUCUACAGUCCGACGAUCUCCUCAAGUCCUGUGCUACACAUCGUAUGUACCGAAUCGGGUGGUGGGUGGGAAAGUAUUAUGUUACGCCGUUCGGAUCUGCACUUCCAGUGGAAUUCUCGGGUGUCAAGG: 1.37
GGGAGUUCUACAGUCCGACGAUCCCUCAAGUCCUGUGCUACACAUCGUAUGUACCGAAUCGGGCGGGCGGCGGGGAAAGUAUUAUGUUACGCCGUUCGGAUCUGCACUUCCAGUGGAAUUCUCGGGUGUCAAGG: 0.985
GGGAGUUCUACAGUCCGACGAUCUACCCUCGUGCCCCUGUUUUUCCUGGCCGUGGUAGUUACUCAAACAGAGGGAACUACAACAGAGGUGGAAUGCCCAACAGAGGGAACUACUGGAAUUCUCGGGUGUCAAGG: -0.797
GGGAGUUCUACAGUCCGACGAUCAGUCCUGUGCUACACAUCGUAUGUACCGAAUCAAAUUUUUUUAAACCCAAACCCAAAAAAGUAUUAUGUUACGCCGUUCGGAUCUGCACUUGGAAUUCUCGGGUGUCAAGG: -0.168
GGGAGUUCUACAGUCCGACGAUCAGUCCUGUGCUACACAUCGUAUGUACCGAAUCAAAUUUAAACCCCCCCAAAUUUAAAAAAGUAUUAUGUUACGCCGUUCGGAUCUGCACUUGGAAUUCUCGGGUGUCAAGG: 0.134

Sample 4
Target: Histone acetyltransferase KAT6A, winged helix 1, GST fusion (KAT6A, Homo sapiens, UniProt Q92794, residues 1-85)
Technique: protein binding microarray
Form: double-stranded DNA, one strand shown
Medium: in vitro
Concentration: not given
Setting: 8-mer, flanks averaged, mean of 2 arrays, mostly near background
Reference: not given
Reading: higher = stronger binding
Quantity: E-score
Construct (chain): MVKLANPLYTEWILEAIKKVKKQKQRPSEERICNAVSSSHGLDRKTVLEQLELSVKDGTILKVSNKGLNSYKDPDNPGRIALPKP
AATCCCAC: -0.264
CGAGAACA: 0.0306
CCACTTTC: -0.0566
AGAATCAA: -0.0858
CCTCTTGC: -0.0931
GTAGCAAA: -0.0967
ACAGGCTA: -0.21
GGCGGACC: 0.365
AAGTTCAC: -0.186
AGGTTAAC: 0.103
GCTTTGCC: -0.0801
CTTGTCCA: -0.208
ACTTAGAT: -0.197
TACCACAA: -0.331
CAATTAAA: -0.154
GTTAAGGA: -0.211
ACACTAGC: 0.0337
CCGCTCAG: 0.306
CGAGCGGA: 0.223
CTTCGAGC: 0.0601
GATCGCGC: 0.363
AATTCTTA: -0.0953
CGGCCGCC: 0.47
ACCTAGGT: -0.238
AGGTGAAA: -0.159

Some of these lines once more (sample 4):
CGAGAACA: 0.0306
CCACTTTC: -0.0566
AGAATCAA: -0.0858
CCTCTTGC: -0.0931
GTAGCAAA: -0.0967
ACAGGCTA: -0.21
GGCGGACC: 0.365
AAGTTCAC: -0.186
AGGTTAAC: 0.103
